Results gathered from unrelated publications.
Numbered parts are unrelated; each lists some results of a single study. Values joined by “and” are separate records of one study, mostly repeats; a detail may differ.
Sequence of UniProt Q99640 (whole entry, looked up): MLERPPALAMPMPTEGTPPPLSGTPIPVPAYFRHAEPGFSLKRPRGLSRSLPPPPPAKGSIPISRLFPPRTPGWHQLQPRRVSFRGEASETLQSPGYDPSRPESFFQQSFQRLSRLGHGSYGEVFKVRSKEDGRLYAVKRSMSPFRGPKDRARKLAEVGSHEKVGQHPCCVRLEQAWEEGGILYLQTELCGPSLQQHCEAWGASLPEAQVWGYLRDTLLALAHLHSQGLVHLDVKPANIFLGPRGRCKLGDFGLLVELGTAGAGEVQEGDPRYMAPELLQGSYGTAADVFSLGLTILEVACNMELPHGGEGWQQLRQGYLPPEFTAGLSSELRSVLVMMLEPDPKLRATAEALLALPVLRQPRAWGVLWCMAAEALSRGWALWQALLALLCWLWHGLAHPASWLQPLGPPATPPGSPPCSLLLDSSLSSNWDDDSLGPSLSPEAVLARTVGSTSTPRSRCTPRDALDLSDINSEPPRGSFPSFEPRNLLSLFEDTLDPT
Sequence of UniProt P35372 (whole entry, looked up): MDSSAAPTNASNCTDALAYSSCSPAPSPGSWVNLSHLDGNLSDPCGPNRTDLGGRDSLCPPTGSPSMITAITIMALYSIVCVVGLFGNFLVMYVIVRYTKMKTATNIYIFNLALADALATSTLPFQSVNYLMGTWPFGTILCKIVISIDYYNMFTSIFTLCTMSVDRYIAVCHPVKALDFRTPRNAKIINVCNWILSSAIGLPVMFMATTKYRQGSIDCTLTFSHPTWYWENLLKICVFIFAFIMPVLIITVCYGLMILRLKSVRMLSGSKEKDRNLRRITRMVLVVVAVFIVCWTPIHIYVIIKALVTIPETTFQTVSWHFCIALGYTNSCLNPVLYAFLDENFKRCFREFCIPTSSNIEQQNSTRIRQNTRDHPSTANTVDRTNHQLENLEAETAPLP
Sequence of UniProt P41143 (whole entry, looked up): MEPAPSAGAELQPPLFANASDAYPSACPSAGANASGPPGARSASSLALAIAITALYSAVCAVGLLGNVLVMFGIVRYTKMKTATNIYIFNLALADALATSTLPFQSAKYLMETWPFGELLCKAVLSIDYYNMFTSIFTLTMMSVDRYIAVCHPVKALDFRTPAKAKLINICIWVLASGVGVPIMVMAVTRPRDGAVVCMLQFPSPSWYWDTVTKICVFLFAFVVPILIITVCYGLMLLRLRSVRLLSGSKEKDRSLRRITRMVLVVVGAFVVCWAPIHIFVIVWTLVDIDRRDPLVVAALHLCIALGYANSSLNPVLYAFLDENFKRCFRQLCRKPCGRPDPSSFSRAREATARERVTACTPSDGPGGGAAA

Sample 1
Compound: Cn1cc(-c2cccc(CN3CCC4(CC3)COc3c4ccc4c3CN([C@H]3CCC(=O)NC3=O)C4=O)c2)cn1
Species: Crbn I391V mouse, MC-38 tumour
For oral, 30 mg/kg once daily, day 1: tumour volume read 89.1 mm3 and 78.8 mm3 and 71.2 mm3 and 87.5 mm3 and 107 mm3.
It gave 500 mm3 and 471 mm3 and 692 mm3 and 260 mm3 and 216 mm3 for tumour volume (oral, daily, 30 mg/kg, day 12, anti-PD1 combination study).
The tumour volume was 175 mm3 and 229 mm3 and 546 mm3 and 266 mm3 and 238 mm3 (oral, daily, 30 mg/kg, day 5, anti-PD1 combination study).
For oral, daily, 30 mg/kg, day 22, anti-PD1 combination study: tumour volume read 738 mm3 and 346 mm3 and 1820 mm3 and 2000 mm3 and 356 mm3.
oral, 30 mg/kg once daily, day 18 — tumour volume: 27 mm3 and 472 mm3 and 161 mm3 and 436 mm3 and 898 mm3.
30 mg/kg, day 8, together with: anti-LAG3 antibody 10 mg/kg weekly — tumour volume: 306 mm3 and 252 mm3 and 564 mm3 and 354 mm3.

Other studies, line by line
The inhibition of `C=CCN1C(=O)C(O)(C(=O)O)Oc2cc(F)ccc21` (stereo not drawn) is reported as 34.1% and 40.7% and 36.2% (Avena fatua; fresh weight; 150 g ai/ha, pre-emergence treatment).
With `CCCCCCCCN1CCC23c4c5ccc(O)c4OC2c2nc4ccccc4cc2CC3(O)C1C5` (stereo not drawn) the Ki was 1.58 nM (OPRD1 (Homo sapiens, UniProt P41143); ligand displacement, radioligand).
`COc1cc(C(=O)OCCCN2CCCN(CCCOC(=O)c3cc(OC)c(OC)c(OCc4ccc([N+](=O)[O-])cc4)c3)CC2)cc(OC)c1OC` has a tissue concentration of 34.7 ng/mL (male CD-1 mouse, trigeminal ganglion; subcutaneous, dose not given, 0.1667 h).
The Ki of `N=C(N)NCCCCCCN1CCC23c4c5ccc(O)c4OC2c2nc4ccccc4cc2CC3(O)C1C5` (stereo not drawn) is reported as 69.2 nM (OPRM1 (Homo sapiens, UniProt P35372); cell-free assay).
`CCCN1C(=O)C(O)(C(=O)O)Oc2cc(F)ccc21` (stereo not drawn) has an inhibition of 5.1% and 4.7% and 4.6% (Glycine max; fresh weight; soil surface spray, 150 g ai/ha, 21 days, pre-emergence crop safety).
With `Cc1ccc(O)c(C)c1-c1cnc2[nH]c(-c3cnc(N4CCC(CN5CCN(c6ccc(N7CCC(=O)NC7=O)cc6F)CC5)CC4)nc3)cc2c1C#N` the inhibition was 17.9% and 16.2% (PKMYT1 (Homo sapiens, UniProt Q99640); binding, HTRF; 1.37 nM).

Some of these lines once more (other studies, line by line):
`CCCN1C(=O)C(O)(C(=O)O)Oc2cc(F)ccc21` (stereo not drawn) has an inhibition of 5.1% and 4.7% and 4.6% (Glycine max; fresh weight; soil surface spray, 150 g ai/ha, 21 days, pre-emergence crop safety).
